Measurements gathered from unrelated publications.
Each line is one published result; not all experiments were run side by side. “And” joins repeats or separate records; there may be more than shown. ± marks the error that the study gave.

`OC[C@H]1OC(O)[C@H]([18F])[C@@H](O)[C@@H]1O` (some centres unmarked) has an SUV of 5.2 (PET; Sprague-Dawley rat, brain; intravenous, 2 h).
With `Nc1ncnc2c1ncn2[C@@H]1O[C@@H]2COP(=O)([S-])O[C@@H]3[C@H](O)[C@@H](COP([O-])(=S)O[C@H]2[C@H]1O)O[C@H]3n1cnc2c(N)ncnc21.[Na+].[Na+]` (some centres unmarked) the RDW-CV was 12.4 ± 0.38% (non-tumor-bearing mice, blood; intravenous, 1 mg/kg, toxicity study).
`O=c1ccc2ncc(=O)n3c2n1C[C@H]3CN1CCC(NCc2cc3c(cn2)OCCC3)CC1` — result for “incidence of cardiac disorders”: 6% (healthy human volunteers; oral, 1500 mg, rifampicin cohort, added: rifampicin 600 mg).
With `Cc1ccc(F)c2cc(C(=O)N[C@@H]3CCC[C@H](N4CC[C@H](N(C)S(C)(=O)=O)C4)C3)[nH]c12` the MRT(0-inf) was 4.2 h (CD1 mouse; oral, 100 mg/kg).
`C[C@]1(CO)Cc2ncn(-c3ccc(C#N)c(Cl)c3)c2C(=O)O1`: “Cmax ratio fed over fasted” 77.5% (healthy humans; oral, 10 mg; relative to: fasted).
With `CC(C)[C@@H]1NC(=O)CNC(=O)[C@H](CC(N)=O)NC(=O)[C@H](CCCNC(=N)N)NC(=O)[C@H](Cc2ccc(O)cc2)NC(=O)[C@H](C(C)C)NC(=O)[C@@H](NC(=O)[C@@H](NC(=O)[C@H](CC(N)=O)NC(=O)[C@H](Cc2c[nH]c3ccccc23)NC(=O)[C@H](C)NC(=O)[C@H](Cc2ccccc2)NC(=O)CN)C(C)C)CSSC[C@@H](C(=O)N[C@@H](Cc2cnc[nH]2)C(=O)N[C@@H](CCCNC(=N)N)C(=O)N[C@@H](CCCNC(=N)N)C(=O)N[C@@H](C)C(=O)N[C@@H](CC(N)=O)C(N)=O)NC(=O)[C@H](C(C)C)NC(=O)[C@H](CCCNC(=N)N)NC1=O` the neutrophils was 17.5 ± 0.65% (ICR mice, blood; intraductal mammary, 5 mg/kg, day 5).
The spleen weight of `O=C1O[C@H]2[C@@H]3OC(=O)c4cc(O)c(O)c(O)c4-c4c(O)c(O)c5oc(=O)c6c(c(O)c(O)c7oc(=O)c4c5c76)-c4c(cc(O)c(O)c4O)C(=O)OC[C@H]3OC(O)[C@@H]2OC(=O)c2cc(O)c(O)c(O)c2-c2c1cc(O)c(O)c2O` (mixture of isomers) is reported as 0.089 g (BALB/c mice; 1000 mg/kg/day, 28 days, subacute toxicity study).
`C[C@@H](NC(=O)N1C(=O)[C@H](Cc2ccnc(N)c2)[C@H]1C(=O)O)C1CCCCC1` — result for “incidence of diarrhea”: 0% (healthy adult Chinese volunteers; continuous intravenous infusion, 2.25 mg/kg/h, 5-day infusion, CTCAE 5.0 grading).
Under “AUC of (R)-enantiomer”, `O=C(C1CCCCC1)N1CC(=O)N2CCc3ccccc3[C@@H]2C1` is recorded as 11.4 µM·h (NMRI mouse, female, S. mansoni-infected, plasma; oral, 400 mg/kg, dosed as racemate).
`COc1ccc(-c2c(-c3ccc(C#N)c(F)c3)nc(N3CCC(N)CC3)n(C)c2=O)cc1F`: “serious TEAE incidence” 0% (measured: esophageal ulcer; human patients; oral, 60 mg, dose expansion).
For `CC(=O)c1c(C)c2cnc(Nc3ccc(C4CCN(CCS(C)(=O)=O)CC4)cn3)nc2n(C2CCCC2)c1=O`, “patients with any TEAE” read 100% (HR+/HER2- advanced breast cancer patients; oral, 100 mg).
For `CCCSc1ccc2nc(NC(=O)OC)[nH]c2c1`, the urea level was 2.16 µmol/L (mouse, blood; oral, 50 mg/kg).
For `CCCCCOc1ccc(-c2ccc(-c3ccc(C(=O)N[C@H]4C[C@@H](O)[C@@H](OCC[N+](C)(C)C)NC(=O)[C@@H]5[C@@H](O)[C@@H](C)CN5C(=O)[C@H]([C@@H](C)O)NC(=O)[C@H]([C@H](O)[C@@H](O)c5ccc(O)cc5)NC(=O)[C@@H]5C[C@@H](O)CN5C(=O)[C@H]([C@@H](C)O)NC4=O)cc3)cc2)cc1`, the bilirubin was 13.5 µmol/L (adult ICU patients, mITT, serum; dose not given, day 14).
`COc1ncccc1-c1cnn2ccc(N3CCN(C(=O)OC(C)C)CC3)nc12` has a drug concentration of 5.3 µM (mouse nerve ligation model, plasma; oral, 30 mg/kg, 120 min after last dose, repeat dosing day 4).
`CO[C@H]1C[C@@H]2CC[C@@H](C)[C@@](O)(O2)C(=O)C(=O)N2CCCC[C@H]2C(=O)O[C@H]([C@H](C)C[C@@H]2CC[C@@H](OC(=O)NCCOCCOCCOCCOCCOCCOCCOCCOCCC(=O)N3CCc4cc(Cn5nc(-c6ccc7oc(N)nc7c6)c6c(N)ncnc65)ccc4C3)[C@H](OC)C2)C[C@@H](O)[C@H](C)/C=C(\C)[C@@H](O)[C@@H](OC)C(=O)[C@H](C)C[C@H](C)/C=C/C=C/C=C/1C` has a TRAE incidence of 8.3% (phase 1 dose escalation, measured: mucositis; advanced solid tumour patients; intravenous, 6 mg weekly, grade ≥3).
Under “subjects with pain in extremity”, `O=C(Nc1ccccc1)C1CCN(C(=O)Oc2cccnc2)CC1` is recorded as 7.1% (adverse event reporting; healthy women; oral, 60 mg, 7 days).
For `COc1cc(C(=O)NC2CCN(C)CC2)c(F)cc1Nc1ncc(C(F)(F)F)c(Oc2cccc3c2C(=O)N(C)C3)n1`, “fraction excreted in urine (0-48 h)” read 5.26% (human patients, urine; oral, 50 mg single dose, geometric mean; relative to: dose).
For `C[C@]1(O)C[C@@](N)(c2ccc(-c3nc4n(c3-c3ccccc3)COc3ccncc3-4)cc2)C1`, “patients with Rash TEAE” read 57.1% (human, advanced or metastatic solid tumours; intermittent, dose escalation total, any grade).
`CC(C)(C)c1cc(-n2nc3ccccc3n2)c(O)c(C(C)(C)C)c1` has a dermal uptake of 1.91 ng/kg body weight/day (exposure assessment; human, age 3-6 years, sunscreen).
`CC[C@H](C)[C@H](NC(=O)[C@H](Cc1ccccc1)NC(=O)[C@H](CCC(=O)O)NC(=O)[C@H](CCCNC(=N)N)NC(=O)[C@H](C)NC(=O)[C@H](C)NC(=O)[C@H](CCC(N)=O)NC(=O)[C@H](CCC(=O)O)NC(=O)[C@H](CCC(=O)O)NC(=O)[C@H](CC(C)C)NC(=O)[C@H](Cc1ccc(O)cc1)NC(=O)[C@H](CO)NC(=O)[C@H](CO)NC(=O)[C@@H](NC(=O)[C@H](CC(=O)O)NC(=O)[C@H](CO)NC(=O)[C@@H](NC(=O)[C@H](Cc1ccccc1)NC(=O)[C@@H](NC(=O)CNC(=O)[C@H](CCC(=O)O)NC(=O)[C@H](C)NC(=O)CCc1cnc[nH]1)[C@@H](C)O)[C@@H](C)O)C(C)C)C(=O)N[C@@H](C)C(=O)N[C@@H](Cc1c[nH]c2ccccc12)C(=O)N[C@@H](CC(C)C)C(=O)N[C@H](C(=O)N[C@@H](CCCNC(=N)N)C(=O)NCC(=O)N[C@@H](CCCNC(=N)N)C(=O)N[C@@H](CCCCNC(=O)COCCOCCNC(=O)COCCOCCNC(=O)CC[C@H](NC(=O)CCCCCCCCCCCCCCCCC(=O)O)C(=O)O)C(=O)NCC(=O)NCC(=O)N[C@@H](CO)C(=O)N[C@@H](CCCCNC(=O)[C@H](CCCCNC(=O)[C@H](CCCCNc1c(NCCCCCN(O)C(=O)CCC(=O)NCCCCCN(O)C(=O)CCC(=O)NCCCCCN(O)C(C)=O)c(=O)c1=O)Nc1c(NCCCCCN(O)C(=O)CCC(=O)NCCCCCN(O)C(=O)CCC(=O)NCCCCCN(O)C(C)=O)c(=O)c1=O)NC(=O)[C@H](CCCCNc1c(NCCCCCN(O)C(=O)CCC(=O)NCCCCCN(O)C(=O)CCC(=O)NCCCCCN(O)C(C)=O)c(=O)c1=O)Nc1c(NCCCCCN(O)C(=O)CCC(=O)NCCCCCN(O)C(=O)CCC(=O)NCCCCCN(O)C(C)=O)c(=O)c1=O)C(=O)O)C(C)C` [zirconium-89 labelled] gave a tissue uptake of 0.579 %ID/g and 0.576 %ID/g and 0.606 %ID/g and 0.658 %ID/g and 0.529 %ID/g (ex vivo gamma counting; Sprague-Dawley rat, male, lung; intravenous, 1 nmol, 24 h).
`S=c1oc(-c2ccccc2)nn1CN1CCN(Cc2ccccc2)CC1` gave a serum AST of 123 ± 13.4 U/L (Wistar rat female; oral, 100 mg/kg, acute toxicity OECD 423).
`C=CC(=O)Nc1cc(Nc2nccc(Nc3cc(Cl)c(F)cc3C(C)(C)O)n2)c(OC)cc1N1CC[C@@H](N(C)C)C1`: “incidence of vomiting” 22.2% (treatment-emergent adverse events; human; oral, 100 mg, phase I clinical trial).
`Cn1cncc1-c1c(F)cncc1NC(=O)c1c(N)nn2cc(F)cnc12` — result for “dose-limiting toxicity upper GI haemorrhage”: 0% (human patients; oral, 80 mg once daily, 21 days).

Excerpt of the above:
`C[C@@H](NC(=O)N1C(=O)[C@H](Cc2ccnc(N)c2)[C@H]1C(=O)O)C1CCCCC1` — result for “incidence of diarrhea”: 0% (healthy adult Chinese volunteers; continuous intravenous infusion, 2.25 mg/kg/h, 5-day infusion, CTCAE 5.0 grading).
For `COc1cc(C(=O)NC2CCN(C)CC2)c(F)cc1Nc1ncc(C(F)(F)F)c(Oc2cccc3c2C(=O)N(C)C3)n1`, “fraction excreted in urine (0-48 h)” read 5.26% (human patients, urine; oral, 50 mg single dose, geometric mean; relative to: dose).
